Results collected from several papers.
Each numbered part is a random draw from the data of one study; scales do not carry over between parts.
Chain of UniProt Q15349 (whole entry, looked up): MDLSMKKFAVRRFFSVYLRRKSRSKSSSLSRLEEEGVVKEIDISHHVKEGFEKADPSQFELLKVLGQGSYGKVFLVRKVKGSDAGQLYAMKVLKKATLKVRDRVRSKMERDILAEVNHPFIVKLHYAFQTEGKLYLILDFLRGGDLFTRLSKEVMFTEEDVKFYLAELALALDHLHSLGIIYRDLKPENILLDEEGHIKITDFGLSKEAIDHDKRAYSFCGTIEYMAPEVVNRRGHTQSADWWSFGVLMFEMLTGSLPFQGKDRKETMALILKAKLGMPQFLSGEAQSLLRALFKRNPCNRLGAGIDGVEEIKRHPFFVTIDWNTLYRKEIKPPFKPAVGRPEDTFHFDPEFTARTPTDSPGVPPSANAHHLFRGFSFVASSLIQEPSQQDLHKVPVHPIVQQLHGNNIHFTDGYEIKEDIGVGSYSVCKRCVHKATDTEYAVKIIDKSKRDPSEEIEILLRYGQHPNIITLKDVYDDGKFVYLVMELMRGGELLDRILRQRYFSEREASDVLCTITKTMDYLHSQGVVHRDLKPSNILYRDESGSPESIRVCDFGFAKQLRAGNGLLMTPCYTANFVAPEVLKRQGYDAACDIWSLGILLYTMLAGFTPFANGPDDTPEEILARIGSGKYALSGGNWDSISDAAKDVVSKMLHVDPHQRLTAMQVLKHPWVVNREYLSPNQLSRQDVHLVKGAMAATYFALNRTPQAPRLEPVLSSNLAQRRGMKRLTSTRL
Chain of UniProt Q12866 (whole entry, looked up): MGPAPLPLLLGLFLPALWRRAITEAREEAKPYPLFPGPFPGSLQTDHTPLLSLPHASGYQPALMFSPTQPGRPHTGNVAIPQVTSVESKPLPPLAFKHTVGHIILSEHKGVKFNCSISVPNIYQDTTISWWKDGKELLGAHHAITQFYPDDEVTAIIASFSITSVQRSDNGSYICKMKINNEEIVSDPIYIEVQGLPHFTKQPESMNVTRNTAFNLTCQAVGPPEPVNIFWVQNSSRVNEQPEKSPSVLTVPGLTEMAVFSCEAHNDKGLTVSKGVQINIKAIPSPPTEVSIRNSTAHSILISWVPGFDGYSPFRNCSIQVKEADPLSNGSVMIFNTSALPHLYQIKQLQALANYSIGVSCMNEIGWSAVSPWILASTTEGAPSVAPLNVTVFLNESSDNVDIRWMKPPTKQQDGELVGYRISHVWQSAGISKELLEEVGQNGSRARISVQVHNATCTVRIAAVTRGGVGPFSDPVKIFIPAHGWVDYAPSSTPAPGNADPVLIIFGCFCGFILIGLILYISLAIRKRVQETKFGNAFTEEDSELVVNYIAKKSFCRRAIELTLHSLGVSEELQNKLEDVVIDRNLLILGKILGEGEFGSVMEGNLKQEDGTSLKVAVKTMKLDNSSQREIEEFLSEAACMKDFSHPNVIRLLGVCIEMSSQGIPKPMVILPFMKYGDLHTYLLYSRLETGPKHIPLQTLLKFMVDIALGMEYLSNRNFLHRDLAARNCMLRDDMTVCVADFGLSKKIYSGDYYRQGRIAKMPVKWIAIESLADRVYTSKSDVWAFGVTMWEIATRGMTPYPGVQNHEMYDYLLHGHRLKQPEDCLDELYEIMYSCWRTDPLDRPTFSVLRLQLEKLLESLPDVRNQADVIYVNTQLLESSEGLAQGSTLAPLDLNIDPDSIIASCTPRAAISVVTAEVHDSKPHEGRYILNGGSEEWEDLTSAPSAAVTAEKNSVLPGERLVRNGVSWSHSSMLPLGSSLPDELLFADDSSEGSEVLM
Chain of UniProt Q9UHD2 (whole entry, looked up): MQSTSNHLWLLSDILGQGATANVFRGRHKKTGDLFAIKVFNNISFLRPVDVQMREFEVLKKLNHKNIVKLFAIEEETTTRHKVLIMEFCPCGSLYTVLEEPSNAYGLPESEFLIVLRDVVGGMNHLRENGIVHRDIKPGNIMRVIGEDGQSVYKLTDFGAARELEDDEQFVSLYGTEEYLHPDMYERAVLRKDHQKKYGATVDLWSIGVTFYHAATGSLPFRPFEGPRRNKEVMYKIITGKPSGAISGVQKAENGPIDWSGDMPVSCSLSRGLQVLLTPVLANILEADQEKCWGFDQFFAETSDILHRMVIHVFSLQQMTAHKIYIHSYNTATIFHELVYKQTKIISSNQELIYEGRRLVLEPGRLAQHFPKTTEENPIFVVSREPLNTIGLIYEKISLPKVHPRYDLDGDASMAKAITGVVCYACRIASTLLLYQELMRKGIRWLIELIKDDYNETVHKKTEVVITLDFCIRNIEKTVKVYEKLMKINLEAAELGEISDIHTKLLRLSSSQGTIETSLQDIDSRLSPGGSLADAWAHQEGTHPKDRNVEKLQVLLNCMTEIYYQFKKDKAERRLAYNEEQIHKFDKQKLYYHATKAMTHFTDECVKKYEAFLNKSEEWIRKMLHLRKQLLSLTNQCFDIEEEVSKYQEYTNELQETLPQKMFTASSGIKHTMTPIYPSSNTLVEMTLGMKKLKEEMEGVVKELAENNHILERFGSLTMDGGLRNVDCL
Chain of UniProt P22607 (whole entry, looked up): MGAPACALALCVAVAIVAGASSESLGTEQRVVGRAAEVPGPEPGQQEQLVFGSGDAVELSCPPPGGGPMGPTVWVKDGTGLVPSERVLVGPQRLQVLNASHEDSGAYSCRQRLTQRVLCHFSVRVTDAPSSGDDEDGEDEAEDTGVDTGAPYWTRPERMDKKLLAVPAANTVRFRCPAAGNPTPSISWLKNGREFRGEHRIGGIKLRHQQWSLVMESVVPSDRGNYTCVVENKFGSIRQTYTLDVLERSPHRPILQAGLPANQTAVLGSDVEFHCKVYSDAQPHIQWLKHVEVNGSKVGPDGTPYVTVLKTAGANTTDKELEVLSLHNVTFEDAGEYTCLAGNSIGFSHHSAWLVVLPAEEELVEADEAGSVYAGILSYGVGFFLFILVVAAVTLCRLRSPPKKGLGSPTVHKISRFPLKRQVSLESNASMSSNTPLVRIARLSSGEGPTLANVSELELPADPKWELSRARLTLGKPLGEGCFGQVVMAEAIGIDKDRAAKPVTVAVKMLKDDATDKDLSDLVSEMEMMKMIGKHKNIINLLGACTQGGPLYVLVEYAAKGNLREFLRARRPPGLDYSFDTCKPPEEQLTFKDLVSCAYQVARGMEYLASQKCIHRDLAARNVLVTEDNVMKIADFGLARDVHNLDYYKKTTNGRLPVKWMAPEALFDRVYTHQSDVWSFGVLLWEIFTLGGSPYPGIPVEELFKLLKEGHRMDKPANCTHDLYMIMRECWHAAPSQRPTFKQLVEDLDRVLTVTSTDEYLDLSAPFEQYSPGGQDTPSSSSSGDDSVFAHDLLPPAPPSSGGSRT
Chain of UniProt P29320 (whole entry, looked up): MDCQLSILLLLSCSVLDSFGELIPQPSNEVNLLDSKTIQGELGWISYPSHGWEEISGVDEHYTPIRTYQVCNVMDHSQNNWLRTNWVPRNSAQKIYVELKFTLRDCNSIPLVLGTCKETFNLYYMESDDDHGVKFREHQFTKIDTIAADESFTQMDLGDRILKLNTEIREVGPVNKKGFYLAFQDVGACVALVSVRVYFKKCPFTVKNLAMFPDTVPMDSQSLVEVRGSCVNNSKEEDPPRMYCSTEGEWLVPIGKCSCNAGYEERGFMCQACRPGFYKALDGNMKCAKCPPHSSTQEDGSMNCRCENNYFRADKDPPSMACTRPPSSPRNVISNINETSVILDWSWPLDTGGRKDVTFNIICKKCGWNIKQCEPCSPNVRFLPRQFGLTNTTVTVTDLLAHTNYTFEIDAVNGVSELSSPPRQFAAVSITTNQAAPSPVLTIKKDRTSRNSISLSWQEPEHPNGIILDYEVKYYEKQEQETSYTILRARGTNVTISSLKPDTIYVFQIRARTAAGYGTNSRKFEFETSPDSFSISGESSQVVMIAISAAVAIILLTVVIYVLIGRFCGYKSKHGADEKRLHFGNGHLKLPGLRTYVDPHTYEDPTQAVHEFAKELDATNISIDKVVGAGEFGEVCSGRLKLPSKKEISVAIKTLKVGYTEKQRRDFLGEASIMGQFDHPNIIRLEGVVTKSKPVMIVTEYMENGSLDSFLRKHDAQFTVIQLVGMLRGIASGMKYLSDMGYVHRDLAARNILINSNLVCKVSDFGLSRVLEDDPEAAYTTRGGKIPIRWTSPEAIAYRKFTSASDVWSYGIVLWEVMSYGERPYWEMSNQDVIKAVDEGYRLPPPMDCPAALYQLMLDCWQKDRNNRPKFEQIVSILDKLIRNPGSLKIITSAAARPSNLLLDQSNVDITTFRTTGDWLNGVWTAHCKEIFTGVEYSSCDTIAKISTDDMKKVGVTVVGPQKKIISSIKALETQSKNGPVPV
Chain of UniProt P06239 (whole entry, looked up): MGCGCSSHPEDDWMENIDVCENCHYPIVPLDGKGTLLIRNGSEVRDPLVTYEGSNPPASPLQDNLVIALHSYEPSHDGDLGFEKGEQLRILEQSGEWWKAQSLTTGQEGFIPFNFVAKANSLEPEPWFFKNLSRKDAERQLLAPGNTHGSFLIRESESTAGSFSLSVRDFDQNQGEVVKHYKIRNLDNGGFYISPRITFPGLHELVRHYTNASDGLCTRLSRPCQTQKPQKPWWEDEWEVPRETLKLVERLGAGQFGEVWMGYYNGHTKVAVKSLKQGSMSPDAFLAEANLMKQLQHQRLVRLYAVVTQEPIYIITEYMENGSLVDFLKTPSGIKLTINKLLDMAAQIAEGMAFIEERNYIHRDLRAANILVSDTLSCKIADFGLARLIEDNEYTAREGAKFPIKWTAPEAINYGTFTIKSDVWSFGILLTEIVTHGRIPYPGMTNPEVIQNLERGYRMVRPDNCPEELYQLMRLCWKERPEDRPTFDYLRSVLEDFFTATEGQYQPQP
Chain of UniProt Q9HC98 (whole entry, looked up): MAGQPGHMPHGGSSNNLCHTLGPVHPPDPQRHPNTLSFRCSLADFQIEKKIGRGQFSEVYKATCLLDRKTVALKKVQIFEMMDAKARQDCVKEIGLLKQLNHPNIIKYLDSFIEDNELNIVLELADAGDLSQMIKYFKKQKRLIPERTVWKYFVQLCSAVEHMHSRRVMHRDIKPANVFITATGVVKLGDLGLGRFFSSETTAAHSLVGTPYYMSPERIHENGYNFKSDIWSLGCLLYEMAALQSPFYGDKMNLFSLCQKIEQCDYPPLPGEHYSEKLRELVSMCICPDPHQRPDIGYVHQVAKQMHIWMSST

Study 1 — host: mouse; medium: microsomes or S9; tested at: 2 µM; time: 0.5 h
| Structure (SMILES) | remaining compound [%] |
| --- | --- |
| O=c1c2cc3c(=O)n(C4CCCC4)ccc3nc2ccn1-c1ncn[nH]1 | 59.6 |
| COc1ccc(N(C)c2cc3n(c(=O)n2)CCc2cc(OC)c(OC)cc2-3)cc1 | 70.2 |
| O=C(/C=C/c1ccc(O)cc1)NCCc1ccc(O)cc1 | 84.1 |
| Cc1cnc(C(=O)N(CCC(=O)NC(C)C)CC2CCCO2)cn1 (stereo not shown) | 56.6 |
| Fc1cccc(F)c1COCC1CON=C(c2cccs2)O1 (stereo not shown) | 57.1 |

Study 2 — SMILES: CCN1/C(=C/C(C)=O)Sc2ccc(OC)cc21; read-out: enzyme activity; mode: inhibitor; tested at: 0.5 µM; relative to: control
| target | remaining activity [%] |
| --- | --- |
| TEK (Homo sapiens, UniProt Q02763) | 102 |
| NEK6 (Homo sapiens, UniProt Q9HC98) | 109 |
| MAPKAPK2 (Homo sapiens, UniProt P49137) | 94.6 |
| MST1R (Homo sapiens, UniProt Q04912) | 94.5 |
| LCK (Homo sapiens, UniProt P06239) | 99.4 |
| TBK1 (Homo sapiens, UniProt Q9UHD2) | 94.5 |
| ARAF (Homo sapiens, UniProt P10398) | 128 |
| WEE1 (Homo sapiens, UniProt P30291) | 102 |
| MERTK (Homo sapiens, UniProt Q12866) | 88.6 |
| RPS6KA2 (Homo sapiens, UniProt Q15349) | 83.3 |
| MAP3K14 (Homo sapiens, UniProt Q99558) | 86.1 |
| MAPK3 (Homo sapiens, UniProt P27361) | 105 |
| JAK3 (Homo sapiens, UniProt P52333) | 103 |
| GSK3B (Homo sapiens, UniProt P49841) | 98.1 |
| NEK1 (Homo sapiens, UniProt Q96PY6) | 90.1 |
| GRK7 (Homo sapiens, UniProt Q8WTQ7) | 104 |
| FRK (Homo sapiens, UniProt P42685) | 99.5 |
| EPHA3 (Homo sapiens, UniProt P29320) | 89.9 |
| TAOK2 (Homo sapiens, UniProt Q9UL54) | 101 |
| ACVR1B (Homo sapiens, UniProt P36896) | 109 |
| MAP3K5 (Homo sapiens, UniProt Q99683) | 118 |
| FGFR3 (Homo sapiens, UniProt P22607) | 99.1 |
| MAP2K2 (Homo sapiens, UniProt P36507) | 86.4 |

Study 3 — cell line: HaCaT; tested at: 100 µM; time: 18 h
| Structure (SMILES) | viability [%] |
| --- | --- |
| CC(C)(C)NC(=O)[C@H]1CC[C@H]2[C@@H]3CC[C@H]4NC(=O)C=C[C@]4(C)[C@H]3CC[C@]12C | 91.8 |
| CNCCC=C1c2ccccc2CCc2ccccc21 | 20.1 |
| OC[C@H]1O[C@@H](O[C@@H]2[C@@H](CO)OC(O)(CO)[C@H]2O)[C@H](O)[C@@H](O)[C@H]1O (mixture of isomers) | 110 |
| O=C(NCCO[N+](=O)[O-])c1cccnc1 | 117 |
| CC(C)=CCC/C(C)=C/CC/C(C)=C/CC/C(C)=C/CC1=C(C)C(=O)c2ccccc2C1=O | 68.8 |

Study 4 — read-out: cell-free assay; method: competition with immobilised ligand; tested at: 1 µM
SMILES: CN(C)c1ncnc(-c2ccc3nc(Nc4cc(CN5CCN(C(=O)CC(F)(F)F)CC5)ccn4)[nH]c3c2)c1Cl
| target | remaining binding [%] |
| --- | --- |
| RAF1 (Homo sapiens, UniProt P04049) | 100 |
| PIK3CA (Homo sapiens, UniProt P42336, H1047Y) | 74 |
| EGFR (Homo sapiens, UniProt P00533, del752-759) | 88 |
| Ribosomal protein S6 kinase alpha-2, C-terminal kinase domain (RPS6KA2, Homo sapiens, UniProt Q15349) | 100 |
| CLK1 (Homo sapiens, UniProt P49759) | 71 |

Study 5 — organism: Sarcocystis neurona; read-out: parasite growth; tested at: 10 µM; time: 96 h; setting: secondary screen
| SMILES | inhibition [%] |
| --- | --- |
| CC(C[N+](C)(C)C)OC(N)=O (stereo not shown) | -15.8 |
| C=CC1=C(C(=O)O)N2C(=O)[C@@H](NC(=O)/C(=N\O)c3csc(N)n3)[C@H]2SC1 | -9.3 |
| Cn1c(=O)c2[nH]cnc2n(C)c1=O | -9.7 |
| O=C(O)CCc1nc(-c2ccccc2)c(-c2ccccc2)o1 | -17.3 |
| CCC(=O)NS(=O)(=O)c1ccc(-c2c(-c3ccccc3)noc2C)cc1 | -13.1 |

Study 6 — cell line: mouse MPNST tumor cells; method: high-content immunofluorescence imaging; measured: nuclear SOX9; tested at: 10 µM; time: 12 h; setting: mean of 2 replicates; relative to: DMSO control; reading: higher = more nuclear SOX9
| Structure (SMILES) | nuclear SOX9 intensity |
| --- | --- |
| COc1ccc2c(c1)C(=O)N(CCc1ccc(S(=O)(=O)NC(=O)NC3CCCCC3)cc1)C(=O)C2(C)C | 85.8 % of DMSO |
| C[C@](Cc1c[nH]c2ccccc12)(NC(=O)OC1[C@H]2C[C@@H]3C[C@@H](C[C@H]1C3)C2)C(=O)NC[C@H](NC(=O)CCC(=O)O)c1ccccc1 (stereo partly shown) | 94.8 % of DMSO |
| N=C(N)NCCC[C@@H](NC(=O)C(c1ccccc1)c1ccccc1)C(=O)NCc1ccc(CNC(N)=O)cc1 | 129 % of DMSO |
| CN(C)CCCn1cc(C2=C(c3c[nH]c4ccccc34)C(=O)NC2=O)c2ccccc21 | 153 % of DMSO |
| CC(C)NC[C@H](O)COc1ccc(CC(N)=O)cc1 | 94.4 % of DMSO |
| O=C(NC(=O)c1c(F)cccc1Cl)NC1c2ccccc2-c2ccccc21 | 111 % of DMSO |

For quick reference, copied from above (study 3):
| Structure (SMILES) | viability [%] |
| --- | --- |
| CC(C)(C)NC(=O)[C@H]1CC[C@H]2[C@@H]3CC[C@H]4NC(=O)C=C[C@]4(C)[C@H]3CC[C@]12C | 91.8 |
| CNCCC=C1c2ccccc2CCc2ccccc21 | 20.1 |
| OC[C@H]1O[C@@H](O[C@@H]2[C@@H](CO)OC(O)(CO)[C@H]2O)[C@H](O)[C@@H](O)[C@H]1O (mixture of isomers) | 110 |
| O=C(NCCO[N+](=O)[O-])c1cccnc1 | 117 |
| CC(C)=CCC/C(C)=C/CC/C(C)=C/CC/C(C)=C/CC1=C(C)C(=O)c2ccccc2C1=O | 68.8 |
